Assay results pooled from the literature.
A part holds a random share of what one study measured. Positions count from the first letter of the parent shown.

Set 1 — method: competition protein-binding microarray; molecule type: double-stranded DNA, one strand shown; sample: in vitro; tested at: 2 µM; with: Pho4 competitor, 0.05 µM; direction: higher = stronger binding; measurement: fluorescence intensity; shared flanks, not repeated: … GTCTTGATTCGCTTGACGCTGCTG
Target: Centromere-binding protein 1, full length, His-tagged (CBF1, Saccharomyces cerevisiae, UniProt P17106, residues 1-351)
Chain of UniProt P17106 (whole entry, looked up): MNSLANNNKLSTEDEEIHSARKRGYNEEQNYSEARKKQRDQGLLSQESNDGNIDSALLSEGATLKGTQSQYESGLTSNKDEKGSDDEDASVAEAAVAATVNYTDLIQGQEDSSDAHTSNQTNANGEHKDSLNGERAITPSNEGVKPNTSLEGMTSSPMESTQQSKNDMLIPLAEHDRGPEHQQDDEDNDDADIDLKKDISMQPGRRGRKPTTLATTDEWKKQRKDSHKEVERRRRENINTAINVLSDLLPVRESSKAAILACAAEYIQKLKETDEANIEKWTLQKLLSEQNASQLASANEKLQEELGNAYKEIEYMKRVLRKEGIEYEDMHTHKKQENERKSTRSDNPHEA
Notes: whole 60-bp probe, lowest competitor level
AAAGCGGTAATTTGTGTTGTGGGTGCAGATATCTAT: 71.3 a.u.
GGACATAAATGCTCGCGCATGACAGAGACTGGCCGG: 81.9 a.u.
CGTCCTAGTGATTGCGACGTGGGTGCCATGAGGAAG: 82.3 a.u.
CGCTAATTTCCTACCCACGTGCTTTAAATAACAATT: 5830 a.u.
TGTTTACAGCCGAGTCACGGGATATTGGTCTGTGAA: 1060 a.u.
CGGGGTTAAGTTTGGACAGTGGGTGGCTTGCAGCAG: 71.3 a.u.
TCCACCAGTGGGCCCAGTGTGACGGCCACACTGGAC: 67.4 a.u.
GTCTTGTCTCATTGAGCCGTGGGTGTCCCCACTTCA: 68.7 a.u.

Set 2 — method: RNA Bind-n-Seq; molecule type: RNA; sample: in vitro; tested at: 200 nM; notes: whole 134-nt RNA, ends assumed; with: 150 mM KCl; reference: input library; direction: higher = stronger binding; measurement: log2 enrichment
Target: Ras GTPase-activating protein-binding protein 1, full length (G3BP1, Homo sapiens, UniProt Q13283)
Chain of UniProt Q13283 (whole entry, looked up): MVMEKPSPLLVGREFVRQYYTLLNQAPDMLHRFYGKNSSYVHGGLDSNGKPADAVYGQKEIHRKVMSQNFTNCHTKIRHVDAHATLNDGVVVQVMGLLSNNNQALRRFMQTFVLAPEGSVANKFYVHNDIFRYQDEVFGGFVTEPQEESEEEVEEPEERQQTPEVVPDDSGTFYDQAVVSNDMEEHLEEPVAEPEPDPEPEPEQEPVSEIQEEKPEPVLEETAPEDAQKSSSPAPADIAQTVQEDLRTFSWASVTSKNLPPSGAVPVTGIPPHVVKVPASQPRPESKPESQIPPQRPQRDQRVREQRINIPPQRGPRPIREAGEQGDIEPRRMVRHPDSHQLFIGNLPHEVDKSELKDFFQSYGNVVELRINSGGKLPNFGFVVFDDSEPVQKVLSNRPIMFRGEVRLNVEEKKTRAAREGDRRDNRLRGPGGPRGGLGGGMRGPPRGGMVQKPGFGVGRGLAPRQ
Shared flanks, not repeated: GGGAGUUCUACAGUCCGACGAUC … UGGAAUUCUCGGGUGUCAAGG
CCUGUGCUACACAUCGUAUGUACCGAAUCGGGGUUUGGGGAAAAAGGGGAAAAAAAGGGGAAAGUAUUAUGUUACGCCGUUCGGAUCUGC: -0.0946
UCCUGUGCUACACAUCGUAUGUACCGAAUCGGGGUUUUUGGGGAAAAAGGGGUUUGGGGAAAGUAUUAUGUUACGCCGUUCGGAUCUGCA: 0.745
GCAGGAAGUAAAAACAAAUGGAAAUCCUUCGGAUAGUGGCAGGGGUGGGGGUUGCUAAGGAAAGGGUGGGAUGGGAGUGGGUAAAGAGUU: 1.15
AAGUCCUGUGCUACACAUCGUAUGUACCGAAUCGGGUUUUGGGUUUUGGGGUUUUGGAAAGUAUUAUGUUACGCCGUUCGGAUCUGCACU: -0.686
AGUCCUGUGCUACACAUCGUAUGUACCGAAUCGGCCCCCGGCCCCCGGGCCCCCGGGGAAAGUAUUAUGUUACGCCGUUCGGAUCUGCAC: -0.759
CACAGACAACACGCACCCUCACAGACACAGAGGGAAGGGGUUGGGAUGGGGACAGGGUGCACAGCAGGGCGGGGUAGGACCCCAGCCCCU: 2.01
UGGGAGGUGGAUUUUGUUUAUUUUUUUAGCUCAUUACCAGGGGUGGGAAUUUUUUUUUAAUAUGUGUCAUGAAUAAAGUUGUUUUUGAAA: 0.0959
ACCAUGCAGGUGGGCAUCUUUGGGAAGUGGGGCAAGGGGGGGAGAGGGAGGGGGGUAACACUUUGGGAACAGGUGGUCCCAGGUCGUUUC: 1.1

Set 3 — target: CCNA1, cyclin fold, Cln2 fusion (human); method: yeast growth competition, sequencing; sample: yeast; notes: weak parent motif; reference: not given; direction: higher = stronger binding; measurement: normalised enrichment score
Starting sequence: CDC25A docking peptide (human); PPHRRRLLFACSP; partner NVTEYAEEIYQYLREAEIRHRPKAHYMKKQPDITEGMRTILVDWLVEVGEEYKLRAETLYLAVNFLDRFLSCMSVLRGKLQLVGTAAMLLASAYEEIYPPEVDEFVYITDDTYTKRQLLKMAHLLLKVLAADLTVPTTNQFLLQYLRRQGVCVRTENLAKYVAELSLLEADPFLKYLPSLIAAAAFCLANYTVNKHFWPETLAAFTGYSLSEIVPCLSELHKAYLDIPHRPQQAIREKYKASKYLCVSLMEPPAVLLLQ
PPHRRRLLFACMP [S12M]: 0.221
PPHRRRLLFACSG [P13G]: 0.377
PPTRRRLLFACSP [H3T]: 0.477
PPHRRRLLFACGP [S12G]: 0.474
PPHRRRLLFKCSP [A10K]: 0.316
PPHRRRLLFACRP [S12R]: 0.349
PPHRHRLLFACSP [R5H]: 0.301

Further values, each from its own experiment
PhoQ, residues 284 288 289 292 302 303 NLMGRA
fold induction (PhoP, residues 12 14 15 18 19 AQALL (Escherichia coli, UniProt P23836); Sort-seq, refers to: YFP reporter; E. coli; PhoQ-PhoP variant library, with: 10 µM Mg2+; reference: high Mg2+ state, higher = stronger signaling): 8.17

A few entries again (set 3):
PPHRRRLLFKCSP [A10K]: 0.316
PPHRRRLLFACRP [S12R]: 0.349
PPHRHRLLFACSP [R5H]: 0.301
